Experimental data collected from several papers.
Parts stem from different laboratories: compare values within a part only.

Block 1
Target: Histone acetyltransferase KAT6A, winged helix 1, GST fusion (KAT6A, Homo sapiens, UniProt Q92794, residues 1-85)
Method: protein binding microarray
Form: double-stranded DNA, one strand shown
Medium: in vitro
Tested at: not given
Notes: 8-mer, flanks averaged, mean of 2 arrays, mostly near background
Reference: not given
Direction: higher = stronger binding
Quantity: E-score
Residues (chain): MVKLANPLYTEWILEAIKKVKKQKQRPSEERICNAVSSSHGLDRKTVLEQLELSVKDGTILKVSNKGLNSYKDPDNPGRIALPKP
CCGGTCCA: 0.0901
ACCAGCCA: -0.297
GCGGCCGC: 0.485

Mixed results
CBF1 full length, His-tagged: Centromere-binding protein 1, full length, His-tagged (CBF1, Saccharomyces cerevisiae, UniProt P17106, residues 1-351)
Sequence of UniProt P17106 (whole entry, looked up): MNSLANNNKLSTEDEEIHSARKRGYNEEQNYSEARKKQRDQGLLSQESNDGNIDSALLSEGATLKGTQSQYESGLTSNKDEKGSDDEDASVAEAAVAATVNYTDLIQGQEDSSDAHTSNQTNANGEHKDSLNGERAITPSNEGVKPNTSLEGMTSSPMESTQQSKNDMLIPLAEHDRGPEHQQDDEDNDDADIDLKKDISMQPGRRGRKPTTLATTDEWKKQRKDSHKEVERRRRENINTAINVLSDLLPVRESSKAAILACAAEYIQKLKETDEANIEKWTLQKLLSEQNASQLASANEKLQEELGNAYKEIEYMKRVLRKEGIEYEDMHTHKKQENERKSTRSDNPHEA
PABPC1L2 full length, GST fusion: PABPC1L2, full length, GST fusion (mouse, UniProt A0ABA7IW68)
CGGGGTTAAGTTTTTCACGTGTTTTGCTTGCAGCAGGTCTTGATTCGCTTGACGCTGCTG  fluorescence intensity (CBF1 full length, His-tagged; competition protein-binding microarray; double-stranded DNA, one strand shown, in vitro; 2 µM, whole 60-bp probe, lowest competitor level, together with: Pho4 competitor, 0.05 µM; higher = stronger binding): 804 a.u.
CAAACUG  7-mer Z-score (PABPC1L2 full length, GST fusion; RNAcompete; RNA, in vitro; 20 nM, 7-mer, probes averaged, single round; reference: mean of 7-mers, higher = stronger binding): 0.149
GATGCGTTGCATACCCACGTGGAACAAATGGTCAAGGTCTTGATTCGCTTGACGCTGCTG  fluorescence intensity (CBF1 full length, His-tagged; competition protein-binding microarray; double-stranded DNA, one strand shown, in vitro; 2 µM, whole 60-bp probe, lowest competitor level, together with: Pho4 competitor, 0.05 µM; higher = stronger binding): 845 a.u.
AAUCUUU  7-mer Z-score (PABPC1L2 full length, GST fusion; RNAcompete; RNA, in vitro; 20 nM, 7-mer, probes averaged, single round; reference: mean of 7-mers, higher = stronger binding): -0.0736
PhoQ, residues 284 288 289 292 302 303 AEGLLW  fold induction (PhoP, residues 12 14 15 18 19 FWNTL (Escherichia coli, UniProt P23836); Sort-seq, item: YFP reporter; E. coli; PhoQ-PhoP variant library, together with: 10 µM Mg2+; reference: high Mg2+ state, higher = stronger signaling): 0.857

Some of these lines once more (block 1):
ACCAGCCA: -0.297
